Measurements pooled from the literature.
Each numbered part is a random draw from the data of one study; scales do not carry over between parts.

Study 1
Target: RNA binding protein fox-1 homolog 2, RRM domain, GST-SBP tag (RBFOX2, Homo sapiens, UniProt O43251-10, residues 100-194)
Method: RNA Bind-n-Seq
Molecule type: RNA
Matrix: in vitro
Concentration: 365 nM
Setting: natural RNA segment, single round, ends assumed
Reference: no-protein control
Reading: higher = stronger binding
All sequences stand within: GGGAGUUCUACAGUCCGACGAUC … UGGAAUUCUCGGGUGCCAA
Residues (chain): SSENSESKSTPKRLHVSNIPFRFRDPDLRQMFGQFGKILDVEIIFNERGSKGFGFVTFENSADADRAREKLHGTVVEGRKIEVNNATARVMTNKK
Strand	RBNS enrichment (R)
UGGACAUGAUUUGAGAUGUAGAAGCCAUUUUUUAUUAAAUAAAAUGCUUAUUUUAGGCUCCGUCCCCAUUGUGGCUCUGGUCUCGAGGCCAGUGCUUGAGUGUGCUCUGA	0.752
GCUAAACAAUCUCCCCUCCCUCACCCUACUUGCACUGCUGUGGGUUUUUUAAAGAGAAACAGAACCAGACUCCUUUCCCGGCCCUCCAAACAUGUAUUCUGUGCGAUAAC	0.779
GGGAUAGACAGACAGAGACCAGGUCUGGGACUAGAGCAUCUGCAGCUUCCGUGGGACAGAAGCUUUGGGUAGCUCUGAGUGACAGCUGCUUGUAUUCUCGGACCUGGACU	0.856
UCCAAAUCCAGCCCUUUUCGUUCUCUUAAUGAUGAAUCACCCAAAGACCUGGCUUUCAUGCUUCCUUAGACACGGCCUCCCUCGACUUACUUGCCUUGAAGAAGAAAGGC	0.604
AACAGAACGUGGUAGUGGAGUAGCUGUUGCCCUUCUCCGGCUGUGUGUACAGUAUGUGUGGAAUAAAAAAGGGAAACUGUUUUCACAAGCUGUUGUUUGUUUCAUAAUUG	0.517
CUUCUCUAAACAUCCUACAGAGAAGGUUCCAAAGCUGAGCACCCAUCACCCUAGGUGUGCACCAGACUCCUAUUAGCCCCUCCUUCCAGGAGCUAGAACCAGGGAGGUCC	0.202
CAGGGACCAUUAGUGUCUUUUUAAAAUUACAUUUUAUUUCACAUUUCAUAAUUCAGAAGUAAACCUUUCAUAGGAAAAAUACUGAGCUGUGCUAAUGUAGCUGAUUUUAG	0.354
CCCCCAUAUUCAGCCACCUGCUGCACCAGGAAGAGGGUGUGAAAGAUUGUGCAUCUGCAUUCAACUACCCUGAACCCUUAGGGAAGAAAUGGAUUCCCUGGCUGAGCCAG	0.449
CAUUUUUUAAAGAUGUCAAGAAACUAGCUAUAGCUGCCUAAGAAUUGAAUCUAUUGUAUUUCCCUCUUGAUAUUCUACCAUGGUGAUGUCAGCUCAUUUCUAAGAUGCCU	0.325
AAUUUUCCAGCAGUAACAUUUAGAGAUUCUUUAUAGAAAUGUCCUCUGCACCAACAGUUUAUGGCUGAGAUGUUUUGUAAUUUCAUGAUGUUUGUAAUUUUCAUGAAAAU	0.826
UUCAGCAUGCCAUUUCUGACUGGCACAUCUCGUGAAGUUUCAUAGAAACAAGGAGUUGGCAUCUUGGAUCUCAGAAUGGCCUGGAAACGGAUGGCCUCUACGCUGUUCCA	7.65
GCUGGCUCAUUAUUUUCCUCAAAGCCUUCUGUCUUUCCUGUGCCUGCCUGUGACUCUUUGCACACUCUGUACUGAGUUUGGUGCUCCACCCAUUCACUGGGGUCAGGUGG	1.88

Study 2
Target: Prothrombin, mature alpha-thrombin (F2, Homo sapiens, UniProt P00734)
Method: aptamer microarray, sandwich
Molecule type: DNA with 2'F-ANA
Matrix: in vitro
Concentration: 200 nM
Setting: whole 15-mer aptamer, many near background
Together with: Cy3 exosite-II aptamer, 400 nM
Reading: higher = stronger binding
Strand: GGTTGGTGTGGTTGG
Modification	mean fluorescence intensity [a.u.]
2'F-ANA at 1 4 13 15	86.9
2'F-ANA at 1 4 8 10 11 14 15	46.2
2'F-ANA at 3 5 6 7 9 11 13	136
2'F-ANA at 1 3 4 5 6 7 8 9 10 12 13 14	48.3
2'F-ANA at 1 2 4 11 12 13 15	178
2'F-ANA at 8 9 11 14 15	185
2'F-ANA at 1 3 4 6 11 12 14 15	81
2'F-ANA at 2 3 7 8 9 11 14 15	432
2'F-ANA at 1 5 9 10 11 12	65.9
2'F-ANA at 1 2 3 4 5 7 9 10 13 14 15	117
2'F-ANA at 1 2 5 7 8 9 10	90
2'F-ANA at 2 5 9 10 12 13 14 15	46.3
2'F-ANA at 2 5 6 8 9 10 14	45.8
2'F-ANA at 2 3 4 5 6 7 8 14	52.2
2'F-ANA at 1 2 4 5 10 11 14 15	51
2'F-ANA at 1 6 7 8 13 14	57.1
2'F-ANA at 1 5 7	56
2'F-ANA at 2 3 5 6 7 9 11 13 14 15	48

Study 3
Target: Interferon regulatory factor 3, full length, phosphomimetic (IRF3, Homo sapiens, UniProt Q14653, residues 1-427, S386D/S396D/S398D/S402D/T404D/S405D)
Method: protein-binding microarray
Molecule type: double-stranded DNA, one strand shown
Matrix: in vitro
Concentration: 2540 nM top
Setting: 60-bp whole probe
Together with: salmon DNA 0.4 mg/ml
Reference: random background probes
Reading: higher = stronger binding
All sequences stand within: GCCTAGCAC … GTCTTGATTCGCTTGACGCTGCTG
Target sequence (chain): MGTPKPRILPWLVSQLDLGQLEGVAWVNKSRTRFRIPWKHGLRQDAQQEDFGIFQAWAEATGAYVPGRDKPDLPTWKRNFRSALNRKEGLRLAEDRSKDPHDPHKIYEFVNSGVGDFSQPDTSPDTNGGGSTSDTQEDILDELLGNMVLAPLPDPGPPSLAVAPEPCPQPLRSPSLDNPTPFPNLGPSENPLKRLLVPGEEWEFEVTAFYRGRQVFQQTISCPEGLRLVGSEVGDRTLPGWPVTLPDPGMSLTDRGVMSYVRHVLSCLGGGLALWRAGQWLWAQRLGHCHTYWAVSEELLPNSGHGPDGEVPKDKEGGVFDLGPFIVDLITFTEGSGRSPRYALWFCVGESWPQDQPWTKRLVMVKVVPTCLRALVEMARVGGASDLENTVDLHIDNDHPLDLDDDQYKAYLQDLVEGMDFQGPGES
Strand	fitted relative affinity [z-score]
GACGGACTGGACACTGGGGAGGTGCTA	-0.575
GACTGTTTGGTCCTGATCCTGTGCTAG	0.174
TTGGAACTGGGGACTGGATTAGTGCTA	-1.1
TTAGCTATCGGGTTTCGATTAGTGCTA	1.78
TTAGGCCTCCTTTTCCTTTAGTGCTAG	1.78
TTAGATATCAGACTGAATTAGTGCTAG	0.276
GACGTTATCAGTATCGAGACGTGCTAG	1.54
TTAGATTTCAGATTGGATTAGTGCTAG	1.51
ACCTCTCACGCATCTGAAACCGTGCTA	0.515
TGTCATTTACATTTTAGTAGGTGCTAG	1.33
TGGGCTACCTCTCTTAGAATGTGCTAG	-0.445
TTAGGTCTCCTTATCATTTAGTGCTAG	2.52
TCACCTTTGCTTTCCTGACTGTGCTAG	1.56
TTAGGTATCGTGTTTCGGTTAGTGCTA	2.87
GACGGTATCCTTTTCCGGACGTGCTAG	7.69
GAAGGTATCGGTTTCGGGACGTGCTAG	7.19
GACGGTTCCCATTTCCTGACGTGCTAG	4.23

Study 4
Target: Histone acetyltransferase KAT6A, both winged helices, GST fusion (KAT6A, Homo sapiens, UniProt Q92794, residues 1-181)
Method: protein binding microarray
Molecule type: double-stranded DNA, one strand shown
Matrix: in vitro
Concentration: not given
Setting: 8-mer, flanks averaged, mean of 2 arrays, mostly near background
Reference: not given
Reading: higher = stronger binding
Construct (chain): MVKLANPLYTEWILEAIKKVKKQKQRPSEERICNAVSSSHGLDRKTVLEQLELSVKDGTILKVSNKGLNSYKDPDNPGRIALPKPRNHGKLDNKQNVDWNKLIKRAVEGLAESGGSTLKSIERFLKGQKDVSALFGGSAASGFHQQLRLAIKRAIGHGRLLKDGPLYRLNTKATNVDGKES
Strand	E-score
ACGAATCA	-0.0147
GAGACGTA	-0.0851
CTGACGAC	-0.0707
ACGACGCG	0.263
CAAGCCTC	-0.257
CGAAATCA	-0.0297
CAAATATG	-0.0265
GGACGGCC	0.251
ATAACTAC	0.0244
ATGACCGA	0.00785
AGTTGTGA	-0.0939
AGACGTAA	-0.234
GGAAGTAA	-0.128
CCGGAGCA	0.134
CAAAGTTC	-0.129
CACACTAA	-0.16
GAATGCTA	-0.0118
CGTTGAAG	-0.0086
GCCGTGAA	0.326
CAACGGCA	0.201
CCTTCGTA	-0.0319
ATTTCTTC	-0.0821
CTGCGTAC	0.0902
GAGCGAGC	0.00238
CCACACCA	-0.134
